Assay results from different studies.
Lines come from different studies, so protocols differ. Several values in a cell are separate wells, animals, samples, runs or records. ± gives the spread as reported.

SMILES	assay	system	conditions	CL/F
C[C@@H](Oc1ccc(S(C)(=O)=O)cc1C(=O)N1C[C@@H]2C[C@]2(c2cc(C(F)(F)F)on2)C1)C(F)(F)F		healthy human volunteers, fed	oral, 10 mg single, geometric mean	4.39 L/h
C[C@H](O)c1cc(C(=O)N[C@@H](C)Cn2ccc(-c3ccc(C#N)c(Cl)c3)n2)n[nH]1		human, fasted, plasma	oral tablet, 300 mg, geometric mean	14.2 L/h
CC1(C)CC[C@]2(NC(=O)C(C)(F)F)CC[C@]3(C)[C@H](C(=O)C=C4[C@@]5(C)C=C(C#N)C(=O)C(C)(C)[C@@H]5CC[C@]43C)[C@@H]2C1		human	150 mg, single dose alone	86.7 L/h
Cn1cncc1[C@@](N)(c1ccc(Cl)cc1)c1ccc2c(c1)c(-c1cccc(Cl)c1)cc(=O)n2C		human, male, plasma	oral, across dose levels	630 mL/min/m²
CN1C(=O)[C@@H](NC(=O)c2nnc(Cc3ccccc3)[nH]2)COc2cccnc21		healthy human, fasted, plasma	oral, 100 mg single dose, geometric mean	5.88 L/h
CC(C)c1nc(N(C)S(C)(=O)=O)nc(-c2ccc(F)cc2)c1/C=C/[C@@H](O)C[C@@H](O)CC(=O)O		healthy human subjects, plasma	oral, 10 mg, arithmetic mean, with: fruquintinib 5 mg	360 L/h
Nc1nc2cccc(-c3ccc(CN4CCS(=O)(=O)CC4)cc3)n2n1	population PK model	human, plasma	oral	2.5 L/h
C#Cc1cccc(Nc2ncnc3cc(OCCOC)c(OCCOC)cc23)c1		human patients		~7 L/h
C#C[C@]1(CO)O[C@@H](n2cnc3c(N)nc(F)nc32)C[C@@H]1O		human, plasma	oral, 400 mg, single dose, geometric mean	27.8 L/h
CC(C)Nc1nc2cc(Cl)c(Cl)cc2n1[C@H]1O[C@@H](CO)[C@H](O)[C@@H]1O	population PK model (NONMEM)	human, 70 kg, no CMV	no CYP3A4 inhibitor/inducer	3.94 L/h
COC(=O)c1ccc2c(c1)NC(=O)/C2=C(\Nc1ccc(N(C)C(=O)CN2CCN(C)CC2)cc1)c1ccccc1		healthy human	oral, 150 mg single, alone	936 L/h
CNC(=O)c1c(C)oc2cc(Oc3ncnc4cc(OC)c(OC)cc34)ccc12		healthy human subjects, plasma	oral, 5 mg, arithmetic mean, with: dabigatran etexilate 150 mg	0.966 L/h
Cn1c(=O)oc2ccc(-c3ccc(C[C@@H](C#N)NC(=O)[C@@H]4CNCCCO4)cc3)cc21		human, moderate renal impairment, plasma	oral, 25 mg single dose, mean	6.09 L/h
CC1(COc2ccc3c(c2)ncn3-c2ccc3cccc(N4CCC(N)CC4)c3n2)COC1		human patients, recurrent/progressive HGG or DIPG, serum	oral, 170 mg/m^2, day 28, median	18.5 L/h/m²
CC[C@@H]1CN(C(=O)NCC(F)(F)F)C[C@@H]1c1cnc2cnc3[nH]ccc3n12	population PK model	human, plasma		40.9 L/h
CCCCCCCCCCCCCCCC(=O)N[C@@H](CCC(=O)NCCCC[C@@H]1NC(=O)[C@H]([C@@H](C)CC)NC(=O)[C@@H](NC(=O)[C@@H]2CCCN2C(=O)[C@H](Cc2ccccc2)NC(=O)[C@H](Cc2c[nH]cn2)NC(=O)[C@@H](NC(=O)[C@H](CC(=O)O)NC(=O)CC(C)C)[C@@H](C)O)CSSC[C@@H](C(=O)N[C@@H](CCCCN)C(N)=O)NC(=O)CNC(=O)[C@H](CCCCN)NC(=O)[C@H](CO)NC(=O)[C@H](CCCNC(=N)N)NC(=O)[C@@H]2CCCN2C(=O)[C@H](CCC(=O)O)NC(=O)[C@H](Cc2ccccc2)NC1=O)C(=O)O		healthy human	subcutaneous, 20 mg, aqueous formulation	1.5 L/h
C[C@@H]1CCO[C@H]2Cn3cc(C(=O)NCc4ccc(F)cc4F)c(=O)c(O)c3C(=O)N12		human, normal renal function	oral, steady state, fixed-dose combination	0.7 L/h
NC(CO)(CO)CCc1ccc(Sc2cccc(OCc3ccccc3)c2)cc1Cl		human, whole blood	3 mg, mean, with: itraconazole 200 mg once daily	20.8 L/h
CC(=O)N(C)[C@H]1CCN(C(=O)c2cnc3c(c2)C[C@](C)(c2ccc(F)cc2)N3)C1		human, male, plasma	oral, 60 mg once daily, steady state, geometric mean	18.5 L/h
Cc1ncnc2c1ccn2[C@@H]1C[C@H](Oc2cc(C(F)F)c(F)c3c2CNCC3)[C@@H](O)[C@H]1O		human, plasma	8 mg once daily	11.5 L/h and 5.15 L/h

SMILES	assay	system	conditions	CL/F
CCCn1cc(C)c2c(=O)[nH]c(-c3cc(S(=O)(=O)N4CCN(CC)CC4)ccc3OCC)nc21		human	oral, 100 mg	665 ± 421 L/h
CN(C)C(=O)c1cc2cnc(Nc3ccc(N4CCNCC4)cn3)nc2n1C1CCCC1		human, normal renal function	oral, 400 mg, single dose, adjusted geometric mean	71.8 L/h
Cn1cc(-c2cn3nccc3c(-c3cnn([C@]4(CC#N)C[C@@H](C#N)C4)c3)n2)cn1		healthy human, plasma	30 mg once daily, day 10, multiple dose, fed, geometric mean	39.9 L/h
C[C@H](Oc1ccc(Br)cc1-c1ccon1)C(=O)O		human, plasma	oral, 400 mg twice daily, day 10, multiple ascending dose	4.39 L/h
COC(=O)N[C@@H](C)CNc1nccc(-c2cn(C(C)C)nc2-c2cc(Cl)cc(NS(C)(=O)=O)c2F)n1		human, plasma	oral, 50 mg, alone, posaconazole study	26 L/h
NC(=S)NN=Cc1ncccc1N		human, plasma	oral, 100 mg	97.5 L/h
CCn1cc(C(=O)N2CCOCC2)c(=O)c2cc(NC3Cc4ccccc4C3)cnc21		human, fed	oral suspension, 300 mg/day twice daily, day 8, arithmetic mean	31.2 L/h
N#Cc1ccc2c(c1)[C@H]1CCCN(C(=O)c3ccc4[nH]cnc4c3)[C@H]1C2		human	20 mg once daily, day 1	2.93 L/h
Cn1nnc2c(C(N)=O)ncn2c1=O		human patients, plasma	oral, 20 mg/m2, day 5, dose level DL2, median, with: talazoparib 400 µg/m2	6.4 L/h/m2
C=C[C@@H]1C[C@]1(NC(=O)[C@@H]1C[C@@H](Oc2ncc(OC)c3ccc(Cl)cc23)CN1C(=O)[C@@H](NC(=O)OC(C)(C)C)C(C)(C)C)C(=O)NS(=O)(=O)C1CC1	population PK base model	human		50.1 L/h
C[C@H]1Oc2cc(cnc2N)-c2c(nn(C)c2C#N)CN(C)C(=O)c2ccc(F)cc21		human patients, plasma	oral, cycle 2 day 1, geometric mean, with: avelumab	17 L/h
O=C(O)CCC(=O)O.[2H]C([2H])([2H])Oc1cc(C)c2[nH]ccc2c1CN1CC[C@@H](C2CC2)C[C@H]1c1ccc(C(=O)O)cc1	LC-MS/MS, mean	human, plasma	50 mg, single dose, fasting	1.55 L/h
Cl.[2H]C([2H])([2H])CC(=O)c1cnc(NC(=O)C2CC2)cc1Nc1cccc(-c2ncn(C([2H])([2H])[2H])n2)c1OC	geometric mean	human	40 mg twice daily, day 1, fed, liquid, multiple dose	15.2 L/h
C[C@@H](Oc1cc(-c2cnn(C3CCNCC3)c2)cnc1N)c1c(Cl)ccc(F)c1Cl		human patients, plasma	oral, cycle 2 day 1, geometric mean, with: avelumab	91 L/h
C[C@H]1O[C@@H](O[C@H]2[C@@H](O)C[C@H](O[C@H]3[C@@H](O)C[C@H](O[C@H]4CC[C@@]5(C)[C@H](CC[C@@H]6[C@@H]5C[C@@H](O)[C@]5(C)[C@@H](C7=CC(=O)OC7)CC[C@]65O)C4)O[C@@H]3C)O[C@@H]2C)C[C@H](O)[C@@H]1O		human	oral, substrate with omaveloxolone, with: omaveloxolone once daily	12.5 L/h
CNC(=O)n1ccc2cc(Oc3ccnc(NC(=O)c4ccc(C5CCN(CCO)CC5)cc4)c3)c(OCCOC)cc21		healthy human, plasma	oral, 35 mg, geometric mean, with: rabeprazole 20 mg	299 L/h
CCN1CCN(Cc2ccc(Nc3ncc(F)c(-c4cc(F)c5nc(C)n(C(C)C)c5c4)n3)nc2)CC1		fasted healthy human subjects	oral, 150 mg, tablet	48.2 L/h
C=CC(=O)NC1CCN(c2ncc3ncnc(Nc4ccc(Oc5ccc6c(c5)ncn6C)c(C)c4)c3n2)CC1		human, plasma	oral, 30 mg single dose, fed, geometric mean	13 L/h
[H]/N=C(/N)c1ccc(NCc2nc3cc(C(=O)N(CCC(=O)O)c4ccccn4)ccc3n2C)cc1		human, plasma	75 mg, alone, geometric mean	144 L/h
C[C@@H](Oc1ccc(S(C)(=O)=O)cc1C(=O)N1C[C@@H]2C[C@]2(c2cc(C(F)(F)F)on2)C1)C(F)(F)F		healthy young humans	oral, 25 mg single dose	3.84 L/h
